Assay results pooled from the literature.
Each line is one published result; not all experiments were run side by side. ± marks the error that the study gave.

For O=C([O][Ti+2][O]C(=O)c1ccc(P(c2ccccc2)c2ccccc2)cc1)c1ccc(P(c2ccccc2)c2ccccc2)cc1.[Cl][Au].[Cl][Au].c1cc[cH-]c1.c1cc[cH-]c1, the absorption half-life was 0.6 h (ICP-MS, refers to: gold; NOD.CB17-Prkdc scid/J mice, blood or plasma; 7.5 mg/kg, after first injection).
C=C(C)C(=O)Nc1ccc(-c2c(-c3ccc(Oc4nccc(C)n4)cc3)c3c(N)ncnc3n2C)cc1 gave a clearance of 23 mL/min/kg (beagle dog, plasma; intravenous).
O=C(CCc1ccc(CNC(C(=O)O)C2CCCCC2)cn1)NO (centres unmarked) gave an AUC(tau) of 381 ng·h/mL (human, plasma; oral, 40 mg once daily, day 7, geometric mean).
CCc1c2c(nc3ccc(O)cc13)-c1cc3c(c(=O)n1C2)COC(=O)[C@]3(O)CC has an AUC(0-inf) of 2650 ng·h/mL (human patients, plasma; intravenous, 177 mg/m^2 of parent drug).
For COc1cc(OC)cc(C2=C3C(C)=C(I)C(C)=[N+]3[B-](F)(F)n3c(/C=C/c4c[nH]c5ccc([N+](=O)[O-])cc45)c(I)c(C)c32)c1, “fluorescence quantum yield” read 0.37 (dichloromethane; relative to: methylene blue).
The uptake ratio of [11CH3]c1ccc2nc(C3CCC3)n(-c3ccc4[nH]ncc4c3)c2n1 is reported as 3.6 (ddY mouse, heart; relative to: 1 min over 60 min).
Under “fluorescence lifetime τ1”, NCCC(=O)N1Cc2ccccc2-c2c(nnn2-c2cn(C3OC(CO)C(O)C3O)c(=O)[nH]c2=O)-c2ccccc21 (mixture of isomers) is recorded as 0.3 ns (frequency-domain fluorometry; methanol).
With Cc1ccc(OCC(=O)O)cc1 the t1/2 was 1.7 h (Sprague-Dawley rat, female, plasma; oral gavage, 30 mg/kg of parent drug).
CC(C)[C@H](NC(=O)[C@@H]1CCCN1C(=O)[C@H](CCCNC(=N)N)NC(=O)[C@H](CS)NC(=O)[C@H](Cc1c[nH]c2ccccc12)NC(=O)[C@H](CCCNC(=N)N)NC(=O)[C@@H](Cc1ccccc1)NC(=O)[C@H](Cc1c[nH]cn1)NC(=O)[C@H](CCC(=O)O)NC(=O)[C@H](CS)NC(=O)[C@H](CS)NC(=O)[C@@H]1CC(=O)N[C@@H](CCCNC(=N)N)C(=O)NCC(=O)N[C@@H](CC(=O)O)C(=O)N[C@H](Cc2ccc(O)cc2)C(=O)N1)C(N)=O [technetium-99m labelled] — result for “tumour to tissue ratio”: 26.1 (C57 mouse, female, B16/F1 melanoma; intravenous, 0.037 MBq, 24 h; relative to: tumour over muscle).
With COc1ccnc(C[S+]([O-])c2nc3cc(-n4cccc4)ccc3[nH]2)c1C (centres unmarked) the Vz/F was 16.6 ± 13.7 L/kg (male Sprague Dawley rats, plasma; oral, 10 mg/kg of ilaprazole racemate).
For CC(C)(O)c1ncc([S@](N)(=O)=NC(=O)Nc2c3c(cc4c2CCC4)CCC3)s1, the AUC(0-last) was 63000 ng·h/mL (healthy human fasted, plasma; oral, 300 mg single dose, CS formulation).
COc1ccc(-c2csc(N/N=C(\C)c3cc(O)cc(O)c3)n2)cc1: “deviation from initial concentration” less than 10% (stock and working solutions; concentration not given, 7 days, room temperature).
The MRT of CC(C)C[C@@H](NC(=O)[C@H](NC(=O)[C@H]1CCCN1)[C@H](C)O)C(=O)N[C@H](Cc1c[nH]cn1)C(=O)N[C@@H](C(=O)N[C@H](Cc1c[nH]cn1)C(=O)N[C@H](CC(N)=O)C(=O)N[C@H](CCCNC(=N)N)C(=O)N[C@H](CCCNC(=N)N)C(=O)N[C@H](CCCNC(=N)N)C(=O)N[C@H](CCCNC(=N)N)C(=O)N[C@H](CCCNC(=N)N)C(N)=O)[C@H](C)O is reported as 9.4 h (beagle dog, plasma; intravenous, 3 mg/kg, single dose).
The total protein of CC(=O)[CH](C(C)=O)[Pt-2]1([S+](C)C)[O]C(C)=CC(C)=[O+]1 (centres unmarked) is reported as 5.01 ± 5.3 g/dL (rat, blood; intravenous, 20 mg/kg, single dose).
With O=C1OC2(c3ccccc31)c1cc(I)c(O)c(I)c1Oc1c2cc(I)c(O)c1I the CL/F was 16.7 mL/min/kg (female C57BL/6 mouse, plasma; intraperitoneal, 50 mg/kg).
CC(C)c1cnc(-c2cc(Cl)ccc2F)cc1Nc1ccncc1C(=O)NC(CO)CO — result for “patients with treatment-related adverse event”: 7.1% (monotherapy, refers to: fatigue; human patients; oral, dose not given, grade 1, phase I A).
CN(C(=O)Cn1c(=O)oc2ccc(-c3ccc(OCC[18F])cc3)cc21)c1ccccc1 — result for “intact parent fraction”: 3.9 ± 1.1% (ischemic Sprague-Dawley rats, plasma; intravenous, 10 MBq radiolabelled, 60 min).
For CCCC[C@@H]1NC(=O)[C@@H](NC(=O)[C@H](CCC(=O)O)NC(=O)CNC(=O)CN2CCN(CC(=O)O)CCN(CC(=O)O)CCN(CC(=O)O)CC2)CCCCNC(=O)C[C@@H](C(N)=O)NC(=O)[C@H](C(C)C)NC(=O)[C@@H]2CCCN2C(=O)[C@H](CCCNC(=N)N)NC(=O)CNC(=O)[C@H](Cc2c[nH]c3ccccc23)NC(=O)[C@H](CCCNC(=N)N)NC(=O)[C@@H](Cc2ccccc2)NC(=O)[C@H](Cc2c[nH]cn2)NC(=O)[C@H](CCC(=O)O)NC1=O [gallium-67 labelled], the tissue ratio was 1.28 (C57 mice, B16/F1 flank melanoma; intravenous, 2 h, added: blocking peptide 10 µg; relative to: tumour over liver).
CC(C)c1ccc2c(c1)CCC1C(C)(CN(CC(O)C[N+](C)(C)C)CC(O)C[N+](C)(C)C)CCCC21C (centres unmarked) gave an HC50 of greater than 1000 µg/mL (mouse red blood cells; 1 h, 37 °C).
The tlag median of Cn1c(=O)oc2ccc(-c3ccc(CC(C#N)NC(=O)C4CNCCCO4)c(F)c3)cc21 (centres unmarked) is reported as 0 h (human; 40 mg, single dose, fasted).
CN1CCC[C@]1(C)/C=C/S(=O)(=O)NC(=O)Nc1c2c(cc3c1CCC3)CCC2 — result for “Tmax after first dose, median”: 0.8 h (human, plasma; oral, 12.5 mg twice daily, day 14, multiple ascending dose).
The oral bioavailability of O=[N][Fe]1([N]=O)[S](CCO)[Fe]([N]=O)([N]=O)[S]1CCO is reported as 6.5% (C57BL/6JNarl mice; relative to: oral over intravenous AUC).
For Cc1ccc(-c2ccc(-c3cc4sccc4o3)cn2)nc1, “radiative decay rate constant” read 0.23 ns⁻¹ (TCSPC; water, HEPES 100 mM; pH 7.4).
For CC(C)CCCC(C)CCCC(C)CCO[C@@H]1O[C@H](CO)[C@@H](O[C@H]2O[C@H](CO)[C@@H](O)[C@H](O)[C@H]2O)[C@H](O)[C@H]1O (some centres unmarked), the interfacial tension was less than 1 mN/m (drop shape tensiometry; water/n-octane; 0.01 wt%, 100 s).
CC1(C)CNC(=O)c2ccccc21 has an AUC(0-t) of 2890 ± 453 ng·h/mL (Sprague-Dawley rat, male, plasma; oral, 5 mg/kg).
For CN1CCC(N[C@@H]2CCc3[nH]c4c(C(N)=O)ccc(-c5ccccc5Cl)c4c3C2)CC1, the oral bioavailability was 35.4% (BALB/c mice; oral, 10 mg/kg; relative to: intravenous 2 mg/kg).
Under “tissue uptake ratio”, CN(CCCN=Cc1ccccc1[O-])CCN(C)CCCN=Cc1ccccc1[O-].[67Ga+3] is recorded as 10.9 ± 2.2 (rat; intravenous, 2 h; relative to: heart over liver).
Nc1nccc(-c2cn(C3CC3)c3ccccc23)n1 has an excreted amount of 0.02% (radio-HPLC, co-eluting peaks pooled; human male, urine; oral, 110 mg, 0 to 96 h, sample holds 4.16% dose; relative to: dose).
Under “volume of distribution”, CC(C)[C@H](NC(=O)CNC(=O)[C@H](CCC(N)=O)NC(=O)[C@H](C)N)C(=O)O is recorded as 5 L/kg (LC-MS/MS; human, male, plasma; intravenous, 10 mg/kg three times daily, day 1, first dose, 10 min infusion, geometric mean).

For quick reference, copied from above:
The tlag median of Cn1c(=O)oc2ccc(-c3ccc(CC(C#N)NC(=O)C4CNCCCO4)c(F)c3)cc21 (centres unmarked) is reported as 0 h (human; 40 mg, single dose, fasted).
CN1CCC[C@]1(C)/C=C/S(=O)(=O)NC(=O)Nc1c2c(cc3c1CCC3)CCC2 — result for “Tmax after first dose, median”: 0.8 h (human, plasma; oral, 12.5 mg twice daily, day 14, multiple ascending dose).
